Measurements gathered from unrelated publications.
Every numbered part comes from another study and shows a few of its results, in no order. Substitutions count along the parent as printed.

Set 1
Target: HLA class I histocompatibility antigen, A alpha chain, allele A*25:01 (Homo sapiens, UniProt P04439)
Read-out: peptide-MHC binding
Form: peptide
Tested at: concentration not given
For `RSVWIPGRW`, binding read “inactive”.
For `QLSLKMLSL`, binding read “inactive”.
For `TVAPPAPVY`, binding read “inactive”.
`THADAHTQL`: binding “inactive”.

Set 2
Target: CCNB2, cyclin fold, Cln2 fusion (human)
Technique: yeast growth competition, sequencing
Sample: yeast
Notes: strong parent motif
Reference: not given
Reading: higher = stronger binding
Starting sequence: viral docking peptide; YKVKRRLVFGADD; partner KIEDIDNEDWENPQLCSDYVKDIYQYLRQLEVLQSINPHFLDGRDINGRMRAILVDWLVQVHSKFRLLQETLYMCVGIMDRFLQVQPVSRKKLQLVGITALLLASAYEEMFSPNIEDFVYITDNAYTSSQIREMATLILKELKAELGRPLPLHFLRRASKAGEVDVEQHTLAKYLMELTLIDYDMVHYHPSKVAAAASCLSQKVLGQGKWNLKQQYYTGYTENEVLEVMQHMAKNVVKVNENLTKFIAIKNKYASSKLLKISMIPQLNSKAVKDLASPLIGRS
For `G10L`, “normalised enrichment score” read 1.45.
For `L7F`, “normalised enrichment score” read 0.613.
`D12I`: “normalised enrichment score” 1.13.
For `L7I`, “normalised enrichment score” read 1.11.
`F9T` — result for “normalised enrichment score”: 0.699.
For `D13A`, “normalised enrichment score” read 0.762.
For `K4Q`, “normalised enrichment score” read 1.14.
`A11P` — result for “normalised enrichment score”: 2.35.
For `A11F`, “normalised enrichment score” read 1.86.
`G10Q`: “normalised enrichment score” 1.68.
For `K4P`, “normalised enrichment score” read 0.297.
`R5M` — result for “normalised enrichment score”: 0.821.
`V3A`: “normalised enrichment score” 0.16.
`V3S`: “normalised enrichment score” 0.582.
`D12S`: “normalised enrichment score” 1.18.
Under “normalised enrichment score”, `V3P` is recorded as 0.42.
For `F9P`, “normalised enrichment score” read 0.118.
`D12M`: “normalised enrichment score” 1.27.
`R5F`: “normalised enrichment score” -0.41.
`R6L` — result for “normalised enrichment score”: 0.687.
`A11M` — result for “normalised enrichment score”: 1.77.
Under “normalised enrichment score”, `L7T` is recorded as 0.0397.
Under “normalised enrichment score”, `L7R` is recorded as 1.27.

Set 3
Target: PABPC1L2, full length, GST fusion (mouse, UniProt A0ABA7IW68)
Technique: RNAcompete
Form: RNA
Sample: in vitro
Tested at: 20 nM
Notes: 7-mer, probes averaged, single round
Reference: mean of 7-mers
Reading: higher = stronger binding
Residues (chain): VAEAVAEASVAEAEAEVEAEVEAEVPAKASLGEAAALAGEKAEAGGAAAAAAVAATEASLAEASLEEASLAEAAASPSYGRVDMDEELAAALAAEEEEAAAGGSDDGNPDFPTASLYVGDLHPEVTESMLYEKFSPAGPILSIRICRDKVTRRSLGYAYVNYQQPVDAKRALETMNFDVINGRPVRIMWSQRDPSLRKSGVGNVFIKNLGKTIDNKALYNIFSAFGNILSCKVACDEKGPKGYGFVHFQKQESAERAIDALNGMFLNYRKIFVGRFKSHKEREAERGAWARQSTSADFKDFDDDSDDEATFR
For `UUACAGG`, the 7-mer Z-score was -0.0663.
`UAUGUUU` gave a 7-mer Z-score of -0.407.
`UCUGCUG` gave a 7-mer Z-score of -0.378.
`CACCUAC` has a 7-mer Z-score of -0.333.
For `GAGACCA`, the 7-mer Z-score was 0.189.
The 7-mer Z-score of `GGAGUAA` is reported as 0.166.
The 7-mer Z-score of `ACAGGGC` is reported as 0.425.
With `CUCAACC` the 7-mer Z-score was -0.271.

Set 4
Target: JUND, bZIP domain (human)
Technique: DHFR protein complementation
Sample: yeast
Notes: single substitutions, most at no-binding floor
Reference: wild-type JUN-FOS pair
Reading: higher = stronger binding
Starting sequence: JUN, bZIP domain (human); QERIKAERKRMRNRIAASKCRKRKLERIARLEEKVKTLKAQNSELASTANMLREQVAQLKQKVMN; partner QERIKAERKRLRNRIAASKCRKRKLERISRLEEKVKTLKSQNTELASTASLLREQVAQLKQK
For `A57N`, the binding fitness was -0.648 natural log.
With `R30N` the binding fitness was -0.771 natural log.
The binding fitness of `E54T` is reported as -0.863 natural log.
`M51V` gave a binding fitness of -0.735 natural log.
The binding fitness of `E32C` is reported as -1.2 natural log.
`K36R` has a binding fitness of -0.556 natural log.
With `T48K` the binding fitness was -0.933 natural log.
`K36G` has a binding fitness of -1.18 natural log.

Set 5
Target: TAR DNA-binding protein 43, full length, His tag (TARDBP, Homo sapiens, UniProt Q13148, residues 1-414)
Technique: RNA Bind-n-Seq
Form: RNA
Sample: in vitro
Tested at: 20 nM
Notes: 6-mer, flanks averaged, single round
Together with: 150 mM KCl
Reference: input library
Reading: higher = stronger binding
`CCGCUG`: “6-mer enrichment (R)” 0.809.
`AUAGUC` — result for “6-mer enrichment (R)”: 0.583.
`UGUGAU`: “6-mer enrichment (R)” 0.88.
`CCAUGG`: “6-mer enrichment (R)” 1.
`GGCAAG`: “6-mer enrichment (R)” 2.18.
Under “6-mer enrichment (R)”, `GCUCCA` is recorded as 0.673.
Under “6-mer enrichment (R)”, `ACACUA` is recorded as 0.632.
Under “6-mer enrichment (R)”, `AGAACC` is recorded as 0.705.

Repeated from above (set 1):
For `QLSLKMLSL`, binding read “inactive”.
For `TVAPPAPVY`, binding read “inactive”.
For `RSVWIPGRW`, binding read “inactive”.
